Published values pooled from the literature.
A part holds a random share of what one study measured.

Sample 1
Target: RING finger protein unkempt homolog, zinc fingers 1-6, GST-SBP tag (UNK, Homo sapiens, UniProt Q9C0B0, residues 30-357)
Method: RNA Bind-n-Seq
Form: RNA
Medium: in vitro
Tested at: not given
Setting: RNA with constant flanks, human and mouse sites, ends assumed
Reference: input RNA pool
Direction: higher = stronger binding
Endpoint: bound/input enrichment
Residues (chain): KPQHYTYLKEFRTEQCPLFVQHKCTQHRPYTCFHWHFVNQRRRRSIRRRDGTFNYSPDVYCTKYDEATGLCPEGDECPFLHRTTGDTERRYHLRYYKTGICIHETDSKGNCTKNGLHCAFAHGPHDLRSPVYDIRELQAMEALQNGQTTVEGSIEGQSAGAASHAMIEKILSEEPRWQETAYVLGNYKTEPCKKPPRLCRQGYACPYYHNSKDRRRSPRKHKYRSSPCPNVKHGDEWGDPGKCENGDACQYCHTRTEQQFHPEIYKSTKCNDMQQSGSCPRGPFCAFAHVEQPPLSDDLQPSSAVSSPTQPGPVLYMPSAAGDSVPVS
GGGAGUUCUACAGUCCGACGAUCUUAAACAGUUGAACUGUGUAAAUGUUUCUUGAUCUCUAAGGUAUUAUGUUUGCCUUCUCUUAGUUAUUUCUGGGUUGUCACAAAGCUCAGUAUCAUGGUUUGACAGAAGCAGUUAUGUGACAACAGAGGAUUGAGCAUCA: 2.44 ratio
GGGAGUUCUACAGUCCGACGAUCAAACAUGGAUGUGGUGGCAUAACUUUCGGACUCUGUGUGACUAUAGCAAGAGAAUUGCAGUAGGUAAGUCCACAAGGGUUCUGAGAUAUGAGCGGCCUCCUAGAAAUGAGAAUCAACAGGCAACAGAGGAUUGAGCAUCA: 0.208 ratio
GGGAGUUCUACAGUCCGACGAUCUCUUUCAAGAAUACAUAUCCUAAAGAUGAAGCACAUGUCUCAGAUGAAUUCUCCAAAAGUAGGUCCAGUGUAUCUAAGGUGCCCUUAUUGCUUCCAAAUGUUUCUGCUUUGGAAUCUCAACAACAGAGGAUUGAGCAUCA: 0.112 ratio
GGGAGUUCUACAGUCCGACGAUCUUGAAAAGGGAAGCCAAAAGGAUACGAGCCUCUUUCAUAAUCUCUCUGUUGGCUAGAGAUUUACUACAUCCGUCCUUGGAAGAGGAAAAGAAAAAACAUAAAAAGAAACGCCUAGUACAACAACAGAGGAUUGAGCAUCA: 0.502 ratio
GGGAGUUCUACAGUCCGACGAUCCUGGAAUUUAAGGACUUGGUGCAGCUCACUCAUUGCCAUGACCCGGAAAUGGACUUCUUUGAGAACAUGAAGCACAUUCAGAUCCACAGACGAGCAAGAGCCCUGAAGAAACUGGCUAAGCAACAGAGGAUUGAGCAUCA: 0.163 ratio
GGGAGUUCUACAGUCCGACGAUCUUCCACCCCUGGGCCAUGAAUGGUGAUGAGUCAGUGCUACUGGACAUCAUCAAGGAGAAAGAUGCUGUGGAGAAGCCCAUUCUUUCAUCCGAAGAGUUGGCAGGCCCUGUGAAUUGUGAACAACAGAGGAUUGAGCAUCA: 0.18 ratio
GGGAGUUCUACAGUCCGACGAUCCCCUGUGUGUAUAAUGUAUCUCCUUUCAGAACAGGAAUGUGCCUCCUAAUGUUUACUGUUACCCUGCUGUCUCUGUAUGUCCAGUCGGUGGAACACUGUAAUGACUUGAGAAUAAACUGCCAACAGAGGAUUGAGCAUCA: 0.264 ratio
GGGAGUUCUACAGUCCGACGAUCGUGACCACAGACUAACCCUUUCUAGGCUUUAACAUUGUAAAUAAUCCUAUAAACAGUUUGAUUUUUUAAGAUGAUUUUUGAUUUGAAGAGACAGGCUUUACAUAAGCCUUCAUUCCUUCACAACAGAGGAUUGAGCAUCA: 3.81 ratio
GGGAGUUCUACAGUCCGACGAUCGUGUGCAAAAGCAAGAAGUCCUGGCAAGCGAGACACACUGGUAUUAAGAUUGUACAACAGAUAGCUAUUCUUAUGGGCUGUGCCAUCUUGCCACAUCUUAGAAGUUUAGUUGAAAUCAUUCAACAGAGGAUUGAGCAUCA: 6.24 ratio
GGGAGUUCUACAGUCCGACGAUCUUCUACUUUGGCUCCCUAAAGCUGAAUUCAAUUCACAUCUCUCAGAGGUUCACCGUAGACAGCUUUGGAAACUACGCUUCCUGUGGACAAAUUGACUUCUCCUGAGGUGGAUCUUGGAAACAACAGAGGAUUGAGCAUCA: 0.0906 ratio
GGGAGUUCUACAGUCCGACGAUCUUAAUGUUCUUAAUAAAGUGUUCUUGGAGUUUAACCUAGCAGCGGAUGGCUUUCUUUAGCUUAGCCCAGUUUCCAGGGAAGCAUUGUUUUUUCCAGGCUGUAAAAUGGCAGAAUCUCCUGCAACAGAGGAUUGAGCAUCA: 0.439 ratio

Sample 2
Target: Fragile X messenger ribonucleoprotein 1, C-terminal low-complexity region (Fmr1, Mus musculus, UniProt P35922)
Method: RNA Bind-n-Seq
Form: RNA
Medium: in vitro
Tested at: 200 nM
Setting: whole 134-nt RNA, ends assumed
Together with: 150 mM LiCl
Reference: input library
Direction: higher = stronger binding
Endpoint: log2 enrichment
All molecules: 7-deaza-guanosine replaces G
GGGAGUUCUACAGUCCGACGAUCGUCCUGUGCUACACAUCGUAUGUACCGAAUCGGGGAAAGGGGUGGGGUUUUUUUGGGGAAAGUAUUAUGUUACGCCGUUCGGAUCUGCACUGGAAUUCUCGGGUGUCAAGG: -0.212
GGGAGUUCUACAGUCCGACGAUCAGUCCUGUGCUACACAUCGUAUGUACCGAAUCGGGGAAAGGGGAGGGGUUUUUGGGGAAAGUAUUAUGUUACGCCGUUCGGAUCUGCACUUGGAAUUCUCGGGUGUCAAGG: -0.321
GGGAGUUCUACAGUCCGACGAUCUUUGCUGUUGUUAACCAUCAAGGGACCUUGGAGAGUGGCCACUACACCAGCUUUAUCCGGCAGCACAAAGACCAGUGGUUCAAGUGUGACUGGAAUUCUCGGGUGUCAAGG: -2.18
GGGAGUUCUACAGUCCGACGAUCGCAGGAAGUAAAAACAAAUGGAAAUGCUUCGGAUAGUGGCAAAGGUGGGGGUUGCUAAGGAAAGGGUGGGAUGGGAGUGGGUAAAGAGUUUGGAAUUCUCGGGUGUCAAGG: 1.21
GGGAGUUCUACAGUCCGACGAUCUGGCCCUGGUGGCAUGCGGGGAGGAAGAGGUGGCCUCAUGGAUCGUGGUGGUCCCGGUGGAUUGUUCAGAGGUGGCCGUGGUGGAGACAGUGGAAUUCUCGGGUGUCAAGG: 0.4
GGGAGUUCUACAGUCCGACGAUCCAAGUCCUGUGCUACACAUCGUAUGUACCGAAUCGGGAAAGGAAAGGGGAAAGGGGAAAGUAUUAUGUUACGCCGUUCGGAUCUGCACUUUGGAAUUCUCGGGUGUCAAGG: -0.645
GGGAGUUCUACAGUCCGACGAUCUCCUCAAGUCCUGUGCUACACAUCGUAUGUACCGAAUCGGAAAGGUGGUGGAAAGUAUUAUGUUACGCCGUUCGGAUCUGCACUUCCAGCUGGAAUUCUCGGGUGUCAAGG: -0.432
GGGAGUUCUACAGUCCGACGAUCGUGAAUCAAAAACUCUGGUUUUAAGCAACCUCUCCUACAGUGCAACAGAAGAAACUCUUCAGGAAGUAUUUGAGAAAGCAACUUUUAUCAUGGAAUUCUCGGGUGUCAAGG: 1.82

Sample 3
Target: Histone acetyltransferase KAT6A, both winged helices, GST fusion (KAT6A, Homo sapiens, UniProt Q92794, residues 1-181)
Method: protein binding microarray
Form: double-stranded DNA, one strand shown
Medium: in vitro
Tested at: not given
Setting: 8-mer, flanks averaged, mean of 2 arrays, mostly near background
Reference: not given
Direction: higher = stronger binding
Endpoint: E-score
Construct (chain): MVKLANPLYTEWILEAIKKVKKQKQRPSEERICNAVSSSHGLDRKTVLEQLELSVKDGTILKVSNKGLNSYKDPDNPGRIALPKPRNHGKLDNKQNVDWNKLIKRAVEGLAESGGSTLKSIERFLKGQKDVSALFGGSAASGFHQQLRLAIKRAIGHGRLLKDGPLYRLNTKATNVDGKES
ATAATCAA: 0.0581
AGTTCTGA: -0.0878
ATCCCGTC: 0.252
ATACCTCA: -0.267
GAGAATGC: 0.0606
CCGACAAA: 0.0366
AACTGCTT: -0.0749
AGAGGACC: -0.0865
AACGGTGC: 0.188
CGTAAGCA: -0.132
ATCATGGG: -0.169
GTAAATGA: -0.103
CTGTGCAC: 0.0448
ATTCTTTG: -0.131
AAGAGTGG: -0.0602
AGCATCAG: -0.0973
AGAATGAA: -0.0413
GCAAACCA: -0.151
AGCCACAA: -0.0978
GTGTATTA: -0.0662
GGTTATAC: 0.0165
CGTTTTAC: 0.0441
CCAGCTCC: -0.256

Sample 4
Target: RNA binding protein fox-1 homolog 2, RRM domain, GST-SBP tag (RBFOX2, Homo sapiens, UniProt O43251-10, residues 100-194)
Method: RNA Bind-n-Seq
Form: RNA
Medium: in vitro
Tested at: 365 nM
Setting: natural RNA segment, single round, ends assumed
Reference: no-protein control
Direction: higher = stronger binding
Endpoint: RBNS enrichment (R)
Residues (chain): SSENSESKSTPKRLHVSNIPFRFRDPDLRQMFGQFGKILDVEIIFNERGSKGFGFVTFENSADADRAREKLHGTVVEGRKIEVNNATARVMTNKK
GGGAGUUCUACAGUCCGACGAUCUAGCACCAGAUUGGUUCCAAAUAGUUAAUGGAUGUGUGCACAUUUUCUGUUCAGGGAUUAAGACCAGAAUAUCAGUGGAUUUGUUUUCCCCACCAAGUGGCCUCUUAGACUGGAAUUCUCGGGUGCCAA: 1.89
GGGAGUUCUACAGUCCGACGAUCUGACGUAGCCCACGGAGGCAGGCGCUGGAUCGUCACGUCACAUCAGCCCCUGGCGACAAGCAGUGUCUAGAAGAGGAUCUGGAGCCAGGCAGACUGGCUGCUUUUAUUUUUGGAAUUCUCGGGUGCCAA: 0.405
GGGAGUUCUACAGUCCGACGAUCAUUUUACAGUACAUGUUAAUAAUUUAUGUUUAAUAUUUGUAUUUGUGUUCUCUUUUGUUAUUUUACUUAGGGUAUAUGGAUAUUUUGCAAUAAUUUUAAUGAUUCUUAAGUGGAAUUCUCGGGUGCCAA: 0.565
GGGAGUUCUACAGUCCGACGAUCUGGUAAAAGUAACUUACUUAAAAAACAUAUGUACACAUAUGUAUGCAAGUAUGUAUAUAUGUGUAUGCUCAGAUUAACUUCCAUAGGUACAUAAGUGAAAGAAGUCUCAGUGGAAUUCUCGGGUGCCAA: 0.448
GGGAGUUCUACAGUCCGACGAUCCUUUGUCUCAAGUUCACACUCUUAGCAUAGAAUAUUAUUGACUAGGCUGUAUGACAUUUUGAGCUCUUAACUGUGAAUGGCAUUCAUUAAGCUCCUUUAUCCUAUAGAUUUGGAAUUCUCGGGUGCCAA: 0.355
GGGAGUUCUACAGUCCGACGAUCGAAACAAUACACCUUUAAACAGAUGUCAAGACCAAAGAUGAUGUAUAAUAAACAGCCGGUGGUUAUGGUGUGGUGUGAGCAGGCCCCCGGAUCACCAGCCCUCUGCUGGUUGGAAUUCUCGGGUGCCAA: 0.52
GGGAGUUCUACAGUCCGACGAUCGUACAGUAUUGCUGCUCAUACACUGAGGAGGUGGGGUCGUCUUCUGAGGAUAUGAACUACACUGCUUGGUCACACGCUGGGAUCAGAAUCUUAAGCAGUUAUUCUUGCCAUGGAAUUCUCGGGUGCCAA: 5.65
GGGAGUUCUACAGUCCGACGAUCCUAUUCCACCACGGCUGUCGUCACCAAUCCCAAGGAAUGGGGACUUCUCCUCCAGUGGACCUGAAGGACGAGGGAUGGGAUUUCAUGUAACCAAGAGUAUUCCAUUUUUAUGGAAUUCUCGGGUGCCAA: 0.155
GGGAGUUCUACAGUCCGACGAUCUCUUUCCUAUAUAAUGAAUAGAUGAGUGAAAGGAGUUUUCUUUUUCUCUUUAGUACUUACGUAUUGGGAUUCCUGUGUCUUACAGCUCUCCCUCUCCAAAUAAUACACAGUGGAAUUCUCGGGUGCCAA: 0.392

Some of these lines once more (sample 3):
ATACCTCA: -0.267
GAGAATGC: 0.0606
CCGACAAA: 0.0366
AACTGCTT: -0.0749
AGAGGACC: -0.0865
AACGGTGC: 0.188
CGTAAGCA: -0.132
ATCATGGG: -0.169
